Experimental data gathered from unrelated publications.
Each line is one published result; not all experiments were run side by side. “And” joins repeats or separate records; there may be more than shown. ± gives the spread as reported.
Replicase polyprotein 1ab main protease: Replicase polyprotein 1ab, main protease (Feline coronavirus, UniProt Q98VG9)
CYP2E1: Cytochrome P450 2E1 (CYP2E1, Homo sapiens, UniProt P05181)
Chain of UniProt P05181 (whole entry, looked up): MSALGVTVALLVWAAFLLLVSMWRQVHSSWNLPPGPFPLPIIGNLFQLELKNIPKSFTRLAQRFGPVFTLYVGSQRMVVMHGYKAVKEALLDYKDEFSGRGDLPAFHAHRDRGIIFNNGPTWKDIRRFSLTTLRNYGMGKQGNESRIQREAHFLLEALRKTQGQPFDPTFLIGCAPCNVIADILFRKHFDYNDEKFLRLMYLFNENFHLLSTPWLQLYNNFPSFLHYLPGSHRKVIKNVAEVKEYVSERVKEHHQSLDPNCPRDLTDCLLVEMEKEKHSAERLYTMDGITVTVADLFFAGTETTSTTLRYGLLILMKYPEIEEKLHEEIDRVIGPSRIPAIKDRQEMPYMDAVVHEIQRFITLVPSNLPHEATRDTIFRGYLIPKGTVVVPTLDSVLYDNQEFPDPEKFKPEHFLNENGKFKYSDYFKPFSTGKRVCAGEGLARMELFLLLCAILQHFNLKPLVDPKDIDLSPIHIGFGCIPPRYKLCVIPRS
FLP: Female-specific lacrimal gland protein (FLP, Mesocricetus auratus, UniProt Q99MG7)
Chain of UniProt Q99MG7 (whole entry, looked up): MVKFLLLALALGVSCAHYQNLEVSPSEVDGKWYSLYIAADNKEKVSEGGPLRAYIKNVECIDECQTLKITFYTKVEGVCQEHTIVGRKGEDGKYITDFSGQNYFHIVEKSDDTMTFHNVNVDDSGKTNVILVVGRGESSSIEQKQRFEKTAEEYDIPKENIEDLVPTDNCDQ
Lrrk2: Leucine-rich repeat serine/threonine-protein kinase 2 (Lrrk2, Mus musculus, UniProt Q5S006)
Chain of UniProt Q5S006 (whole entry, looked up): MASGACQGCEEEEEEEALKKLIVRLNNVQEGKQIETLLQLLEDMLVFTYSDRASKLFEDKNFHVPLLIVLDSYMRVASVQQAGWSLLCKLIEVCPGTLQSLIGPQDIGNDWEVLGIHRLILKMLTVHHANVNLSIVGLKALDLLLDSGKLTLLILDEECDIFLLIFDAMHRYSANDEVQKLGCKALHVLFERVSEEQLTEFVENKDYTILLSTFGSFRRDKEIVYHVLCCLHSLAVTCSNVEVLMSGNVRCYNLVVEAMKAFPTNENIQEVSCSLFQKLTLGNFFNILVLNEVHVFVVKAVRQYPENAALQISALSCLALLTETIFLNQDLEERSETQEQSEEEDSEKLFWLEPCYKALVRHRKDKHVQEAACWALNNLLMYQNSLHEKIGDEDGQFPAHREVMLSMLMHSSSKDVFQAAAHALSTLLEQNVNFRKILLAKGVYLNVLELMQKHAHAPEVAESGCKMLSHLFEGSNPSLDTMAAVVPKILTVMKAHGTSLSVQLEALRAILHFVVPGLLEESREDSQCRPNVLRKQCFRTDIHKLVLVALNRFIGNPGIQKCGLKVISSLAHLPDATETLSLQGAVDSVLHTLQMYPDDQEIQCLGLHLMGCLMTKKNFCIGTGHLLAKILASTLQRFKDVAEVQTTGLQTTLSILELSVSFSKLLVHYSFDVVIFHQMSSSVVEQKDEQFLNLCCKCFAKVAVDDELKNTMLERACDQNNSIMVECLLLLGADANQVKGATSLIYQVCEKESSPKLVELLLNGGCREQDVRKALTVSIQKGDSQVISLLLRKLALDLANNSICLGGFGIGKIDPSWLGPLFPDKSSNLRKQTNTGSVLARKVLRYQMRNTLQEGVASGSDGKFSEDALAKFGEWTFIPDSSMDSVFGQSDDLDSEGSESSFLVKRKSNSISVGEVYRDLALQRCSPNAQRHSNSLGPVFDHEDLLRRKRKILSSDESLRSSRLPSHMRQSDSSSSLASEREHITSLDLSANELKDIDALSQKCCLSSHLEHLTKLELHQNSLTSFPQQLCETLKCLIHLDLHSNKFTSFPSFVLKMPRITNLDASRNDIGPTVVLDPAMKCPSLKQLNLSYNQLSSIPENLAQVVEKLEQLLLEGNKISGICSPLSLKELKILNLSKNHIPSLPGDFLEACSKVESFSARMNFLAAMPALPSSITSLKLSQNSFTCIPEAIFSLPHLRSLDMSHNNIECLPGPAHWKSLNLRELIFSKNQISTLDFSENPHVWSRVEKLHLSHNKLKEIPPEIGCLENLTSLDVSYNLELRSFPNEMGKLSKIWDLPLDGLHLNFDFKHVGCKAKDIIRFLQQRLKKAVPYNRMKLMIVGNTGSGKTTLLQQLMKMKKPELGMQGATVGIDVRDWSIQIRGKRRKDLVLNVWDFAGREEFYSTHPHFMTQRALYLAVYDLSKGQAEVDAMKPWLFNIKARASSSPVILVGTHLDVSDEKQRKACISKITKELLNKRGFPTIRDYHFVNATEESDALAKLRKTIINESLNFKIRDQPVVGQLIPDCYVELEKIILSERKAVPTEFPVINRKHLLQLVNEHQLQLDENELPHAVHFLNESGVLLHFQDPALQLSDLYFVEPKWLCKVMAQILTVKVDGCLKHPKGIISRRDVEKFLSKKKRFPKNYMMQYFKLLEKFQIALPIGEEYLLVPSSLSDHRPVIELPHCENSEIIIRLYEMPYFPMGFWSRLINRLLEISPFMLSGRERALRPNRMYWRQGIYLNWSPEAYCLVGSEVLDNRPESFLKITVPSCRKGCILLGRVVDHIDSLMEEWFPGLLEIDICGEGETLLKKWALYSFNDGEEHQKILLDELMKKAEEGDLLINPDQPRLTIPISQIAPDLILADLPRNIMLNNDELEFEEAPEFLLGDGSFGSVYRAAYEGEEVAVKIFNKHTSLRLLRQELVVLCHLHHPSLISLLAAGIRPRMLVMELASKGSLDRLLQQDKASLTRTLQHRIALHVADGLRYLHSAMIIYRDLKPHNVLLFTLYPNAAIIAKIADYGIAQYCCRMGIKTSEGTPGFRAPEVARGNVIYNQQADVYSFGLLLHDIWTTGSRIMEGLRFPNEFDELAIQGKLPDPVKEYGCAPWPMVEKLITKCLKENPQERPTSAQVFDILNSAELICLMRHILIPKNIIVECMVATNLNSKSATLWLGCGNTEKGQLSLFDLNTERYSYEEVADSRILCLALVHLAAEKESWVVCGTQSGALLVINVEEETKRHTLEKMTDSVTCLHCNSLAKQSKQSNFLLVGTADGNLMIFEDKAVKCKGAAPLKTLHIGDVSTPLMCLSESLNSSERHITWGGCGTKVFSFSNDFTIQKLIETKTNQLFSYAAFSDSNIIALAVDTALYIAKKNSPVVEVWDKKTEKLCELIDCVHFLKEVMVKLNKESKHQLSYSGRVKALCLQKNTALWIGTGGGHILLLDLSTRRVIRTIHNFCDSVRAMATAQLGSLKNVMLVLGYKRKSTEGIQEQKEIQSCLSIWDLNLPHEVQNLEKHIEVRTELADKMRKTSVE
sfhI: sfhI (Serratia fonticola, UniProt Q9RMI1)
SHMT1: Serine hydroxymethyltransferase, cytosolic (SHMT1, Homo sapiens, UniProt P34896)
Chain of UniProt P34896 (whole entry, looked up): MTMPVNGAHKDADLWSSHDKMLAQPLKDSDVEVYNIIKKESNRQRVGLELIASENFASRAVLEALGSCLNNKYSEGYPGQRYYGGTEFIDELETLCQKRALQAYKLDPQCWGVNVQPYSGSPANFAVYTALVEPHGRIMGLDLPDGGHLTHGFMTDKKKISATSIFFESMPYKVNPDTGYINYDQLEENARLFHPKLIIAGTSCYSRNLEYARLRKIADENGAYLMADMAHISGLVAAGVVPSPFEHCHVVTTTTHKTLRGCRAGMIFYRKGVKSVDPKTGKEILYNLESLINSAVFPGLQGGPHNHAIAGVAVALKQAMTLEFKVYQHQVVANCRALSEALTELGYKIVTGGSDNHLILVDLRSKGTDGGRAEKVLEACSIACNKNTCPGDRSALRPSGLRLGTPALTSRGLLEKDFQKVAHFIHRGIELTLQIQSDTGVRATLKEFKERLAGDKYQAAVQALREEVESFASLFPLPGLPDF
Chain of UniProt P0ADI4 (whole entry, looked up): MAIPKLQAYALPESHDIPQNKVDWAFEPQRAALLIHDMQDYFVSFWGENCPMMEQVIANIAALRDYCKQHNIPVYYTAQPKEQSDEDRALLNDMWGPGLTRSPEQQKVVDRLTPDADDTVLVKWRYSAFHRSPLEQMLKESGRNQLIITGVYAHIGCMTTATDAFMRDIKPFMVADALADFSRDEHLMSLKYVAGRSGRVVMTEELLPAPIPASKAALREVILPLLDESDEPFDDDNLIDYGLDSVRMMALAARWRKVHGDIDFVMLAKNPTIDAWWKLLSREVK
Chain of UniProt Q00194 (whole entry, looked up): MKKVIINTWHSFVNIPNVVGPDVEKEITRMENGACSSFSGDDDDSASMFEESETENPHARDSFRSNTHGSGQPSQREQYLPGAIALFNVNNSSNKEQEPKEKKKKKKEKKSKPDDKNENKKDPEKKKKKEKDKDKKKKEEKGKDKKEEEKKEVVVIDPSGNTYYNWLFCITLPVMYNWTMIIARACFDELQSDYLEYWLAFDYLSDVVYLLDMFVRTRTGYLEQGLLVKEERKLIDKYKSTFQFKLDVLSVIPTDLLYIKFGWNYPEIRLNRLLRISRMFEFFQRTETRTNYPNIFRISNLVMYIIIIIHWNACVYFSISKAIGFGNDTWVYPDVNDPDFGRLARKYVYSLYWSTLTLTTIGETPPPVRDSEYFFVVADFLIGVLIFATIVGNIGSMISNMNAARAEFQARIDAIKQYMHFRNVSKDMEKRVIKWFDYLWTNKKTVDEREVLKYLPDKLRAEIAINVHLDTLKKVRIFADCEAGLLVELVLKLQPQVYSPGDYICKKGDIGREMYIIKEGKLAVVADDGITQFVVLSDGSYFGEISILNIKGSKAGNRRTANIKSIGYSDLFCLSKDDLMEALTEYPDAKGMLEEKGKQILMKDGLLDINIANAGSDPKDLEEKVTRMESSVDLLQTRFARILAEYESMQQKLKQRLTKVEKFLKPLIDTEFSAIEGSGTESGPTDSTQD
Chain of UniProt P40261 (whole entry, looked up): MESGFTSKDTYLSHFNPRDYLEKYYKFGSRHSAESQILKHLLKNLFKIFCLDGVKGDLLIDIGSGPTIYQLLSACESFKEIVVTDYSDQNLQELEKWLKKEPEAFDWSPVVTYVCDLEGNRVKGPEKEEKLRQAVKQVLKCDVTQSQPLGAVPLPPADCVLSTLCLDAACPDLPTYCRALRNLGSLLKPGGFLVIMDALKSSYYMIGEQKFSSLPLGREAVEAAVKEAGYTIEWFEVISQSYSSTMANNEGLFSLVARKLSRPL

The Ki of `O=S1(=O)O[C@@H]2[C@H](O)[C@@H](O)[C@H](O)[C@@H](CO)[C@@H]2O1` is reported as over 500 µM (GBA1 (Homo sapiens, UniProt P04062, R534H); enzyme activity, irreversible inhibitor; pH 5.2, 37 °C, with: 2,4-DNP-β-Glc).
With `C[C@@H]1O[C@@H](Oc2cc(O)c3c(=O)c(O)c(-c4ccc(O)c(O)c4)oc3c2)[C@H](O)[C@H](O)[C@H]1O` the Ki was 45.2 µM (Replicase polyprotein 1ab main protease; enzyme activity, inhibitor, fluorescence).
`O=C(c1ccc(SCCF)cc1)C1CCN(C2Cc3ccccc3CC2O)CC1` (racemic) has a Ki of over 1 µM (Tmem97 (Rattus norvegicus, UniProt Q5U3Y7); ligand displacement, radioligand).
`CCCCC/C=C/C=O` has a Ki of 4.1 ± 0.1 µM (CYP2E1; competitive inhibitor; human liver S9; 30 min, pH 7.4, with: p-nitrophenol substrate).
With `CCCCCn1c(=O)n(CCCCN2CCN(c3ccc(F)cc3)CC2)c2ccccc21` the Ki was over 10 µM (rat NMDA receptor PCP site; rat brain membranes; with: [3H]TCP).
With `COc1cc(O)c2c(=O)cc(-c3ccc(O)c(O)c3)oc2c1` the Ki was 16.7 µM (Replicase polyprotein 1ab main protease; enzyme activity, inhibitor, fluorescence).
`O=c1[nH]cc(I)c(=O)[nH]1` has a Ki of 1300 ± 70 µM (uracil transporter; uracil uptake, inhibitor; Trypanosoma brucei brucei, bloodstream form; 30 s, with: 0.15 µM [3H]-uracil).
With `1-methylquinoline` the Ki was over 1000 µM (NNMT (Homo sapiens, UniProt P40261); inhibitor, fluorescence polarisation competition).
For `O=c1c(-c2ccc(O)cc2)coc2cc(O)cc(O)c12`, the Ki was 9.3 ± 0.9 µM (CNGA1 (Bos taurus, UniProt Q00194); cGMP-activated ion current, inhibitor, inside-out patch clamp; Xenopus oocytes; with: AMP-PNP 200 µM).
For `CCCCCCCCCCCCO`, the Ki was 0.17 µM (FLP; binding, fluorescence displacement; with: 1-NPN 2 µM).
For `CCCN(CC[C@]1(O)C[C@@H](NS(=O)(=O)c2cccc(Cl)c2)C1)[C@H]1CCc2nc(N)sc2C1` (relative stereo), the Ki was 0.071 ± 0.0048 µM (dopamine D2-like receptor, rat; radioligand binding; rat striatal membranes; high-affinity component, with: [3H]spiperone).
The Ki of `NC(=O)c1ncn([C@H]2[C@H](O)[C@H](O)[C@]3(CO)C[C@H]23)n1` is reported as over 1 µM (off-target receptors and transporters, human; radioligand binding; PDSP screen).
For `CCCN(CCC1(O)CC(NS(=O)(=O)c2cccc(OC)c2)C1)[C@H]1CCc2nc(N)sc2C1` (stereo in doubt), the Ki was 0.16 ± 0.0085 µM (dopamine D2-like receptor, rat; radioligand binding; rat striatal membranes; high-affinity component, with: [3H]spiperone).
For `Nc1ncnc2c1ncn2[C@@H]1O[C@H](COP(=O)(O)OP(=O)(O)O)[C@@H](O)[C@H]1O`, the Ki was 300 ± 100 µM (Lrrk2; enzyme activity, inhibitor, TR-FRET; Ki,eb, with: PLK-peptide varied).
`CC(C)=CCC[C@@H](C)CC=O` (racemic) has a Ki of 0.19 µM (FLP; binding, fluorescence displacement; with: 1-NPN 2 µM).
For `CC(=O)N[C@H]1[C@H](O[C@H]2[C@H](O)[C@@H](NC(C)=O)C(O)O[C@@H]2CO)O[C@H](CO)[C@@H](O)[C@@H]1O` (stereo partly drawn), the Ki was 450 µM (Lysozyme C (LYZ, Gallus gallus, UniProt P00698); enzyme activity, inhibitor, fluorescence).
`C=Cc1ccccc1` gave a Ki of 1100 µM (CYP2E1; inhibitor; 30 min, pH 7.4).
`CCOC(=O)C1(CCN2CCc3ccccc3C2)Cc2cc(Cl)ccc2C1=O` (stereo not drawn) has a Ki of 0.038 µM (HTR2A (Homo sapiens, UniProt P28223); ligand displacement, radioligand).
The Ki of `CCCN(CC[C@]1(O)C[C@H](NS(=O)(=O)c2ccccc2OC)C1)[C@H]1CCc2nc(N)sc2C1` (relative stereo) is reported as 0.17 ± 0.018 µM (dopamine D2-like receptor, rat; radioligand binding; rat striatal membranes; high-affinity component, with: [3H]spiperone).
For `O=C(O)c1cccc(O)c1O`, the Ki was 200 µM and ~200 µM (Enterobactin synthase component B (entB, Escherichia coli, UniProt P0ADI4); isochorismatase activity, inhibitor, LDH-coupled).
The Ki of `CCCCCCC(C)=O` is reported as 4 µM (FLP; binding, fluorescence displacement; with: 1-NPN 2 µM).
`Cc1cn([C@H]2C[C@H](O)[C@@H](CO)O2)c(=O)[nH]c1=O` gave a Ki of over 10000 µM (uracil transporter; uracil uptake, inhibitor; Trypanosoma brucei brucei, bloodstream form; 30 s, with: 0.15 µM [3H]-uracil).
`CCCN(CCC1(O)CC(NC(=O)c2ccc(F)cc2)C1)[C@H]1CCc2nc(N)sc2C1` (stereo in doubt) gave a Ki of 0.367 ± 0.027 µM (dopamine D2-like receptor, rat; radioligand binding; rat striatal membranes; high-affinity component, with: [3H]spiperone).
The Ki of `O=c1[nH]cc(Br)c(=O)[nH]1` is reported as 180 ± 36 µM (uracil transporter; uracil uptake, inhibitor; Trypanosoma brucei brucei, bloodstream form; 30 s, with: 0.15 µM [3H]-uracil).
`CCCCCCC=O` gave a Ki of 32 ± 1 µM (CYP2E1; competitive inhibitor; human liver S9; 30 min, pH 7.4, with: p-nitrophenol substrate).
With `CCCN(CC[C@]1(O)C[C@@H](NS(=O)(=O)c2ccc(F)cc2)C1)[C@H]1CCc2nc(N)sc2C1` (relative stereo) the Ki was 0.789 ± 0.036 µM (dopamine D2-like receptor, rat; radioligand binding; rat striatal membranes; high-affinity component, with: [3H]spiperone).
`CCOC(=O)[C@@]1(CS)N[C@@H](C(=O)O)C(C)(C)S1` has a Ki of 130 ± 10 µM (sfhI; enzyme activity, inhibitor; pH 7.5, 30 °C, with: imipenem substrate).
`Cc1ccc2nc(N)[nH]c(=O)c2c1Sc1ccncc1` gave a Ki of over 1000 µM (SHMT1; enzyme activity, absorbance; pH 7.2).
`O=c1ccnc[nH]1` gave a Ki of 4410 ± 1090 µM (uracil transporter; uracil uptake, inhibitor; Trypanosoma brucei brucei, bloodstream form; 30 s, with: 0.15 µM [3H]-uracil).
`OC[C@@H]1[C@@H](O)[C@H](O)[C@@H](O)CN1CCCCCOCC12CC3CC(CC(C3)C1)C2` gave a Ki of 4.97 µM (bglA (Thermotoga maritima, UniProt Q08638); enzyme activity, inhibitor, Lineweaver-Burk; pH 6.8, 25 °C, with: p-nitrophenyl β-D-glucopyranoside).
With `C=CCc1ccc(O)c(OC)c1` the Ki was 1.69 µM (FLP; binding, fluorescence displacement; with: 1-NPN 2 µM).
With `CCOC(=O)[C@@]1(CS)N[C@@H](C(=O)O)CS1` the Ki was 20 ± 2 µM (sfhI; enzyme activity, inhibitor; pH 7.5, 30 °C, with: imipenem substrate).
`Nc1cc[nH]c(=O)n1` has a Ki of over 2500 µM (uracil transporter; uracil uptake, inhibitor; Trypanosoma brucei brucei, bloodstream form; 30 s, with: 0.15 µM [3H]-uracil).
For `Nc1nc2[nH]c(CCCc3ccc(C(=O)N[C@@H](CCC(=O)O)C(=O)O)s3)cc2c(=O)[nH]1`, the Ki was 112 µM (SHMT1; enzyme activity, inhibitor, fluorescence).
The Ki of `Nc1nc2c(c(=O)[nH]1)C[C@@H](CCc1ccc(C(=O)N[C@@H](CCC(=O)O)C(=O)O)cc1)CN2` is reported as 23 µM (SHMT1; enzyme activity, absorbance; pH 7.2).
`C[C@H]1O[C@@H](n2ccc(=O)[nH]c2=O)C[C@@H]1O` has a Ki of over 2500 µM (uracil transporter; uracil uptake, inhibitor; Trypanosoma brucei brucei, bloodstream form; 30 s, with: 0.15 µM [3H]-uracil).
For `Nc1ncnc2c1ncn2[C@@H]1O[C@H](COP(=O)(O)OP(=O)(O)C(Cl)(Cl)P(=O)(O)O)[C@@H](O)[C@H]1O`, the Ki was 0.073 µM (Tyrosine-protein kinase JAK3, activated (JAK3, Homo sapiens, UniProt P52333); binding, LanthaScreen Eu binding).
`C[C@H]1O[C@@H](n2ccc(=O)[nH]c2=O)[C@H](O)[C@@H]1O` gave a Ki of over 2500 µM (uracil transporter; uracil uptake, inhibitor; Trypanosoma brucei brucei, bloodstream form; 30 s, with: 0.15 µM [3H]-uracil).
The Ki of `CC12CCC(CC1)C(C)(C)O2` is reported as 0.24 µM (FLP; binding, fluorescence displacement; with: 1-NPN 2 µM).
For `O=C(O[C@@H]1Cc2c(O)cc(O)cc2O[C@@H]1c1cc(O)c(O)c(O)c1)c1cc(O)c(O)c(O)c1`, the Ki was 162 µM (SLC22A8 (Homo sapiens, UniProt Q8TCC7); transporter uptake, inhibitor).
With `OC[C@H]1OC(O)[C@H](O)[C@@H](O)[C@@H]1O` (stereo partly drawn) the Ki was 8900 µM (beta-glucosidase (Penicillium italicum); non-competitive inhibitor; up to 6 mM, pH 4.5, 60 °C, with: pNP-glucoside).
`Nc1ccc(N=Nc2ccc(-c3ccc(N=Nc4ccc(N)c5ccc(S(=O)(=O)O)cc45)cc3)cc2)c2cc(S(=O)(=O)O)ccc12` has a Ki of 4.3 µM (SLC7A11 (Homo sapiens, UniProt Q9UPY5); transporter uptake, inhibitor, radiometric).
Under Ki, `CCCCCc1cccc(O)c1C(=O)O` is recorded as “no inhibition” (KAT8 (Homo sapiens, UniProt Q9H7Z6); enzyme activity, inhibitor; up to 400 µM, with: 4 µM acetyl-CoA, 60 µM histone substrate).
`[Ca+2]` has a Ki of 31 µM (Cyclic nucleotide-gated channel alpha-2 (CNGA2, Bos taurus, UniProt Q03041); single-channel current, blocker, outside-out patch; wild type, -80 mV, with: cGMP 5 µM).
`CCCN(CCC1(O)CC(NS(=O)(=O)c2ccc(OC)cc2)C1)[C@H]1CCc2nc(N)sc2C1` (stereo in doubt) has a Ki of 0.102 ± 0.015 µM (dopamine D2-like receptor, rat; radioligand binding; rat striatal membranes; high-affinity component, with: [3H]spiperone).
The Ki of `CCCCCC/C=C/C=O` is reported as 2.9 ± 0.2 µM (CYP2E1; competitive inhibitor; human liver S9; 30 min, pH 7.4, with: p-nitrophenol substrate).
With `Nc1ncnc2c1ncn2[C@@H]1O[C@H](COP(=O)(O)OP(=O)(O)NP(=O)(O)O)[C@@H](O)[C@H]1O` the Ki was 700 µM (Lrrk2; enzyme activity, inhibitor).
The Ki of `CCCN(CCC1(O)CC(NC(=O)c2ccccc2Cl)C1)[C@H]1CCc2nc(N)sc2C1` (stereo in doubt) is reported as 0.072 ± 0.011 µM (dopamine D2-like receptor, rat; radioligand binding; rat striatal membranes; high-affinity component, with: [3H]spiperone).

Excerpt of the above:
The Ki of `NC(=O)c1ncn([C@H]2[C@H](O)[C@H](O)[C@]3(CO)C[C@H]23)n1` is reported as over 1 µM (off-target receptors and transporters, human; radioligand binding; PDSP screen).
`CC(C)=CCC[C@@H](C)CC=O` (racemic) has a Ki of 0.19 µM (FLP; binding, fluorescence displacement; with: 1-NPN 2 µM).
For `CC(=O)N[C@H]1[C@H](O[C@H]2[C@H](O)[C@@H](NC(C)=O)C(O)O[C@@H]2CO)O[C@H](CO)[C@@H](O)[C@@H]1O` (stereo partly drawn), the Ki was 450 µM (Lysozyme C (LYZ, Gallus gallus, UniProt P00698); enzyme activity, inhibitor, fluorescence).
With `C[C@@H]1O[C@@H](Oc2cc(O)c3c(=O)c(O)c(-c4ccc(O)c(O)c4)oc3c2)[C@H](O)[C@H](O)[C@H]1O` the Ki was 45.2 µM (Replicase polyprotein 1ab main protease; enzyme activity, inhibitor, fluorescence).
